# Experimental data from different studies.
# Every numbered part comes from another study and shows a few of its results, in no order. Substitutions count along the parent as printed.
# Sequence of UniProt Q9Y385 (whole entry, looked up): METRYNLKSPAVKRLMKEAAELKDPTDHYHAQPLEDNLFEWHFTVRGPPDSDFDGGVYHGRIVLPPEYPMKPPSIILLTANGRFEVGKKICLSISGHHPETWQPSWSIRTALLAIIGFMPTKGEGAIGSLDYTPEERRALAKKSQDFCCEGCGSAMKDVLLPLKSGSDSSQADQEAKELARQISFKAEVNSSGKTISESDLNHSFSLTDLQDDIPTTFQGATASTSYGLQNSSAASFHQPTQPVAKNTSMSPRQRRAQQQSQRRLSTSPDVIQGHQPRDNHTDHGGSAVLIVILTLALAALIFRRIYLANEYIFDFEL
# Sequence of UniProt O00762 (whole entry, looked up): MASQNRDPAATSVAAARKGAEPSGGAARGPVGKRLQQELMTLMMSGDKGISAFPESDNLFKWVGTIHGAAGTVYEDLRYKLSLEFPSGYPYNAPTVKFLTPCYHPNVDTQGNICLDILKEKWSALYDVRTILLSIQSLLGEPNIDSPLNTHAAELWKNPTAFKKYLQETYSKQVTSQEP
# Sequence of UniProt Q712K3 (whole entry, looked up): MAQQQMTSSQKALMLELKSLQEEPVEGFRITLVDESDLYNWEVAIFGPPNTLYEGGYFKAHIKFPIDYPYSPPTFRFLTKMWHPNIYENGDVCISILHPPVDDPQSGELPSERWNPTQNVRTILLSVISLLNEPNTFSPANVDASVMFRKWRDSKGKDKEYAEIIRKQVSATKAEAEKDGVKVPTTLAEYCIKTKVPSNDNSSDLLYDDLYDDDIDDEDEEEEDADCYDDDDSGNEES
# Sequence of UniProt P62837 (whole entry, looked up): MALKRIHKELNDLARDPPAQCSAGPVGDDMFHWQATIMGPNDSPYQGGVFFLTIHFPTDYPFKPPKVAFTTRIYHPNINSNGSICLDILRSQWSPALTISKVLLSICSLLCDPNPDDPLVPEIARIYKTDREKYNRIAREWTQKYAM
# Sequence of UniProt P63146 (whole entry, looked up): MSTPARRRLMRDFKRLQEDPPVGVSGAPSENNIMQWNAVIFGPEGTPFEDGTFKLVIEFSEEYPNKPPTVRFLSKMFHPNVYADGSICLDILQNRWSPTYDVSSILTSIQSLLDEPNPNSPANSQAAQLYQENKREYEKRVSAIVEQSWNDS
# Sequence of UniProt P62253 (whole entry, looked up): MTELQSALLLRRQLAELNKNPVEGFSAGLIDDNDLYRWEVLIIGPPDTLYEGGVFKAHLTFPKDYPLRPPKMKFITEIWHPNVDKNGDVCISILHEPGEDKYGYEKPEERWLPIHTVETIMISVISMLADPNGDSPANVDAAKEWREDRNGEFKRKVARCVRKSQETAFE

# Series 1 — target: CCNB1, cyclin fold, Cln2 fusion (human); technique: yeast growth competition, sequencing; medium: yeast; setting: weak parent motif; relative to: not given; direction: higher = stronger binding
# Starting sequence: LLGL2 docking peptide (human); KSLKKSLRQSFRR
Substitution,normalised enrichment score
S2A,0.331
Q9A,0.498
K5A,0.549
S10A,-0.311
R12A,0.74
L3A,0.754
L7A,0.0681

# Series 2 — technique: DHFR PCA, deep sequencing; medium: yeast; with: (+)-ABA 0.39 µM; relative to: wild-type fitted maximum; direction: higher = stronger binding
# Target: ABI1, truncated, D143A, DHFR fusion (Arabidopsis thaliana)
# Setting: methotrexate growth selection, single substitutions
# Starting sequence: PYL1, truncated, DHFR fusion (Arabidopsis thaliana); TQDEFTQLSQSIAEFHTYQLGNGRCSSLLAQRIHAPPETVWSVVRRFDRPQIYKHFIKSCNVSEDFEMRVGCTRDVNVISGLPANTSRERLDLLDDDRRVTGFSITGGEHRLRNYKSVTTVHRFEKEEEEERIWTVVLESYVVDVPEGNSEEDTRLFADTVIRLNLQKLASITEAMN; partner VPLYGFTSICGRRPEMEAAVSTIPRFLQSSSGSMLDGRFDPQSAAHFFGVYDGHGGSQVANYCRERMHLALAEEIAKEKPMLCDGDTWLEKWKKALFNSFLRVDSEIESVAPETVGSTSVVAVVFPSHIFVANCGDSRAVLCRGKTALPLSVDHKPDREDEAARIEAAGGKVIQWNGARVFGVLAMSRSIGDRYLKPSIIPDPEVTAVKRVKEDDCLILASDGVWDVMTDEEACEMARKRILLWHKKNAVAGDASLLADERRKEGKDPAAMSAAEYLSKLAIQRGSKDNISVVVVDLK
Substitution,relative binding score [%]
V44S,-7.13
V121A,18
I162C,15.9
S140I,-19.3
I79Y,34.8
V136R,-10.9
T154A,7.42
D65Q,29.3
A30P,-4.77
V161W,73.6
T39L,62.4
S80Y,57.3
V137G,8.05
I12E,-5.68
H16W,-5.83
G81Y,-14.5

# Series 3 — Sequence: B1 (RING1 RING domain); technique: yeast two-hybrid; medium: yeast; setting: mostly zero background; relative to: not given; direction: higher = stronger interaction
# B1: RING1 RING domain (UniProt Q06587); chain SPRSLHSELMCPICLDMLKNTMTTKECLHRFCSDCIVTALRSGNKECPTCRKKLVSKRSLR
target,lacZ reporter activity
UBE2C UBC core domain (UniProt O00762),0
UBE2G1 UBC core domain (UniProt P62253),0
UBE2B UBC core domain (UniProt P63146),0
UBE2I UBC core domain (UniProt P63279),0
UBE2R2 UBC core domain (UniProt Q712K3),0
UBE2D2 UBC core domain (UniProt P62837),0
UBE2J1 UBC core domain (UniProt Q9Y385),0

# Series 4 — technique: RNA Bind-n-Seq; molecule type: RNA; medium: in vitro; tested at: not given; relative to: input RNA pool; direction: higher = stronger binding
# Target: RING finger protein unkempt homolog, zinc fingers 1-6, GST-SBP tag (UNK, Homo sapiens, UniProt Q9C0B0, residues 30-357)
# Setting: RNA with constant flanks, human and mouse sites, ends assumed
# All sequences stand within: GGGAGUUCUACAGUCCGACGAUC … CAACAGAGGAUUGAGCAUCA
# Residues (chain): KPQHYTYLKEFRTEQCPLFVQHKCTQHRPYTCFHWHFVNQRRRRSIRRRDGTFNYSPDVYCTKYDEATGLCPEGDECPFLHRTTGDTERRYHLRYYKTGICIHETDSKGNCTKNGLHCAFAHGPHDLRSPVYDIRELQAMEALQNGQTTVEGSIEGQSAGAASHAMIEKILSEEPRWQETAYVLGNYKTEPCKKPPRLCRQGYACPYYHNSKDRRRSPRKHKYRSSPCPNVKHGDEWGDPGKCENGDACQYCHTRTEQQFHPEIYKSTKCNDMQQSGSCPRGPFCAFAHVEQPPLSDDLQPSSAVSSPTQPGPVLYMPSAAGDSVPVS
Sequence,bound/input enrichment [ratio]
GUUAGUUUCUUUAUAACCCGUUUAAGUUUGGUUUGCCUCAAUAUACUUUUUAGUUAUUUAAUUAGUAAUUUAAGUAAAUGUGUUUGGUAAUCAUUGUGAAGUUCAGAUUUAUUAUGGAGA,12.9
AUUGAAAAUAUGAUGAACUCUAUCUUUAAGGGUAUAUUUGUUCAUCGAUACCGUGAUGCAAUUGCUGAAAUUCGAGCCAUCUGUAUUGAAGAAAUUGGAGUGUGGAUGAAAAUGUAUAGC,0.26
CUGAAACAAUAUUGAUUCAAAUUAUUCUCCCUACCCUUAUUUACAGCUGCUGUUUUUAUUUUUAAGGAAUGGUCGUUGGAGGUCAGAGUGGAAGUUUACAGUCACUCCUUCCACCACACA,0.433
CUUAUGACCCUCGUGGGUCAUGAUAACUGGGUACGUGGAGUUCUGUUCCAUUCUGGGGGGAAGUUUAUUUUGAGUUGUGCUGAUGACAAGACCCUACGCGUAUGGGAUUACAAGAACAAG,0.351
AAAGUUUCAAACACUUUCACUUACGCCAGAGUACUGUAAAAUCUAUGUCUUUUCCAGCGUUAGCAUUAAGCCGGGCGCCGUUUGCCGUGUCCUUCGUUCCACGAGCCCUUUGGUUUUUAC,0.169
CGAAGCUCGCGGGCGCUGGCGGGACAGGCGCGUGAGGCCACAACACAUGCGUGUAUCUUGCUUGGGCUAUCUUCCCUGCUCUGCCACGCCGGGUCUGGAGAAGGGGUUUCAGCCCCAGGA,0.0934
AAUUCCAUUGCAAACUUUUUCCGUUUGCUAUCUCAGGGAGGUGGAAAAAUCAAGGUUGAGAUUUUGAAAAUCCUUUCGAAUUUUGCUGAAAAUCCAGAUAUGUUGAAGAAACUUCUCAGU,0.085
CUAAAAUCAUACAUUGAUAAAUACAUUUUGGAAAAUGCCAGUAUUAAAGUAUUAUUUUAUUACAGUUCAGUGGAAAAUGUUAACAAUUGCAUUUACUCUUGACUCAUAUUGUUAAAGCUC,0.265
